Assay results of several laboratories.
Each numbered part is a random draw from the data of one study; scales do not carry over between parts.

Sample 1
Target: Sal-like protein 4, full length isoform A (SALL4, Homo sapiens, UniProt Q9UJQ4, residues 1-1053)
UniProt Q9UJQ4, sequence (whole entry, looked up): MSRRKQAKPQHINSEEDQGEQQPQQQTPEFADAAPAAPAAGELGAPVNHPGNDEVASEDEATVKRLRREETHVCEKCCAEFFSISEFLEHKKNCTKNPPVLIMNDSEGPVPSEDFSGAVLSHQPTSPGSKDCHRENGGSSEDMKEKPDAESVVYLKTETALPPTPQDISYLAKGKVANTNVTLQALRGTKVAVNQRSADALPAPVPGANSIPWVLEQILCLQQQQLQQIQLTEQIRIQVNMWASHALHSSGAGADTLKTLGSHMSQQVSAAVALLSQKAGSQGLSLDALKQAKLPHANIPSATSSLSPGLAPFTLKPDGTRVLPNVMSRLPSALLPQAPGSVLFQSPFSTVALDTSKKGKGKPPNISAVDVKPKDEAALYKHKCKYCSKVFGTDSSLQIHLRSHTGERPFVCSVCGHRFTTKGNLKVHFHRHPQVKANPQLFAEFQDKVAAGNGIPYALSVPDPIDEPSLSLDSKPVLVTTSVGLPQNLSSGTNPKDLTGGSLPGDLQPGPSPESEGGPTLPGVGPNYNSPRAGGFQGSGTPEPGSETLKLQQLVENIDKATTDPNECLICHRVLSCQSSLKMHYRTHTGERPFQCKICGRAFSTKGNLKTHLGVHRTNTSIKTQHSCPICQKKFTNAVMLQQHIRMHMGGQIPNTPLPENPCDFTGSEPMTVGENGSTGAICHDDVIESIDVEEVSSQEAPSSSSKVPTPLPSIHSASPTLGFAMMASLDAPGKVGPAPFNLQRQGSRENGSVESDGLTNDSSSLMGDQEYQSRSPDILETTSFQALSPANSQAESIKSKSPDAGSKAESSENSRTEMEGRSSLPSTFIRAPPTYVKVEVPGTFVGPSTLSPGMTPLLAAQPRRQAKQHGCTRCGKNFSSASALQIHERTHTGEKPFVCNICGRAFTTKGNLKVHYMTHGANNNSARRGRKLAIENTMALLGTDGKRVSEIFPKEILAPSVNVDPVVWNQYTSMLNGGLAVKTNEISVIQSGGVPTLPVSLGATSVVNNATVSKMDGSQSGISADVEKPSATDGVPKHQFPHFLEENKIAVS
Technique: universal PBM
Form: double-stranded DNA, one strand shown
Matrix: in vitro
Tested at: 600 nM
Setting: 8-mer, flanks averaged, mean of replicates
Direction: higher = stronger binding
| Oligonucleotide | E-score |
| --- | --- |
| ATCGTCCG | -0.157 |
| ACGCCACC | -0.312 |
| GATATGAC | 0.271 |
| ACAAAACA | 0.159 |
| AGGCCTAA | -0.0664 |
| AACGAAAA | 0.26 |
| CAACTGAC | -0.0661 |
| AGTGGACG | 0.0104 |
| CAGTTGCC | -0.0915 |
| AGTTAATG | 0.296 |
| GACGGTAA | -0.00391 |
| CACGGTCG | -0.343 |
| AATTAAAC | 0.287 |
| AGAACCTC | -0.1 |
| AGGAACAC | -0.00386 |
| ATTGAAGG | 0.143 |
| CCGTAGAG | -0.206 |
| TGTCAACA | 0.157 |
| CGTCTGCA | -0.124 |
| CTCATCTA | 0.0698 |
| ATCGTGTA | 0.0268 |
| AAGACGAA | 0.125 |
| TACCTCAA | 0.0599 |

Sample 2
Target: Sox-I, HMG box (Salpingoeca helianthica)
Technique: Spec-seq
Form: double-stranded DNA, one strand shown
Matrix: in vitro
Tested at: not given
Setting: whole probe, mean of replicates
Baseline: not given
Direction: lower = stronger binding
Constant ends, left off below: GAGTCGTCTCGTCAGCAC … CCGTAGAGCACTCAGGTC
Target sequence (chain): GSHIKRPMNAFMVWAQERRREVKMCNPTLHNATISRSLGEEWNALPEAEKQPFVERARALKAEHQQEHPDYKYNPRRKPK
| Oligonucleotide | relative binding energy |
| --- | --- |
| CATAAGT | 0.454 ln ratio |
| ATCCGTT | 0.0258 ln ratio |
| AGTAGTT | -0.232 ln ratio |
| CAAAGTT | 0.594 ln ratio |
| CTTAGTT | 0.261 ln ratio |
| GAATGTT | 0.124 ln ratio |
| CATGTAG | 1.01 ln ratio |
| CTGCGTT | 0.954 ln ratio |
| CATTATC | -0.705 ln ratio |
| CATGAAT | 0.773 ln ratio |
| CATGGGG | 0.988 ln ratio |
| CATCAGG | 0.819 ln ratio |
| CATTGAC | 0.29 ln ratio |
| TTGAGTT | 0.912 ln ratio |
| GGGTGTT | 0.634 ln ratio |
| CGAGGTT | 1.07 ln ratio |
| CATAGAT | 0.405 ln ratio |
| GTCGGTT | 0.868 ln ratio |

Sample 3
Target: RNA binding protein fox-1 homolog 2, RRM domain, GST-SBP tag (RBFOX2, Homo sapiens, UniProt O43251-10, residues 100-194)
Technique: RNA Bind-n-Seq
Form: RNA
Matrix: in vitro
Tested at: 365 nM
Setting: natural RNA segment, single round, ends assumed
Baseline: no-protein control
Direction: higher = stronger binding
Constant ends, left off below: GGGAGUUCUACAGUCCGACGAUC … UGGAAUUCUCGGGUGCCAA
Construct (chain): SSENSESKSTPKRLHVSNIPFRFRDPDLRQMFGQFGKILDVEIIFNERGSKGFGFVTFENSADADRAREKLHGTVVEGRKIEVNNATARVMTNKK
| Oligonucleotide | RBNS enrichment (R) |
| --- | --- |
| UUCACUUAGUCAACAAGUGAUAAGUAAGUAACUUUCAUGUGCUAGGUGCUGUUAGACACAGAAGGUAAAUAUGUUCUUAACAAAAUGCUUUCUGAAAUUUUGAACCCCAC | 0.25 |
| UCUUUCUCCAGGUGGGAUGUAGCACCCCGAAGUAGAGCUUUCUGCUCUGCUCCUGGAAAAGGCUAGGGAGCUGGGGCUGGGGCUCCCCUCCCAUGACCAGGCAGUGGUCA | 0.257 |
| CUUUGUCGGCGCUGAGGAACACUGCUUUUUCACAAAGUUCCCCCGGGAUAGAAUGGCUGUCCAGUCUAAGCUCAGGGCAGCCUCUUCAACCACUGUUGGCCCAGCCUGGC | 0.192 |
| GGGGGGUGUGAGUGGGUGCAUUUUUUAAAGCUGUCUUGAAUACCUAUUUAAAUGUGUGUUUUGGGGUGUUUUUUUUAGGGUUUUUUUUUUAAGCUGCCUGUGAUAUGUCC | 1.56 |
| AAUCUCGUGACCAGUGAUUUGGAUUUUAUUUUGUAUUUACAGGGUCUGUCAUUAAUAAUAAUUAACCCCCCUCCCCUCAUGGAACACUCCCGUUUGUACCUCAACAGAUG | 0.403 |
| UGAAAAACGAUAAUAGCCUUACACUGAGUACAAAUAAUACUUUAAGAGCAUGUGAAGAUGUGAUCAUUUGUGAUGUUACUUGUAAAAAAAAGUAUAUAUACAUAUCUUUU | 1.6 |
| CCUGGGAGACAAGAGCAUUACCCAGCUUGGCUUUCACGGGGGAGGGUUGUAUUCAGUAAAAAAGAAUAGUAAAUAUAAGGUCACUGAGAUUCUAAGUAAGAUAGUAAAUC | 2.96 |
| UUGCGUCACGUGGACCAGGGACAGUGCUGAAAUCAGCAGUGCUCAGAAACAAUUUAACAUGUUGAAACGACAAUAUUCUAAAAUACUGAUGAAUCUUGCAUCAAUAUAAU | 0.334 |

Sample 4
Target: Interferon regulatory factor 3, full length, phosphomimetic (IRF3, Homo sapiens, UniProt Q14653, residues 1-427, S386D/S396D/S398D/S402D/T404D/S405D)
Technique: protein-binding microarray
Form: double-stranded DNA, one strand shown
Matrix: in vitro
Tested at: 2540 nM top
Setting: 60-bp whole probe
Added: salmon DNA 0.4 mg/ml
Baseline: random background probes
Direction: higher = stronger binding
Constant ends, left off below: GCCTAGCAC … GTCTTGATTCGCTTGACGCTGCTG
Construct (chain): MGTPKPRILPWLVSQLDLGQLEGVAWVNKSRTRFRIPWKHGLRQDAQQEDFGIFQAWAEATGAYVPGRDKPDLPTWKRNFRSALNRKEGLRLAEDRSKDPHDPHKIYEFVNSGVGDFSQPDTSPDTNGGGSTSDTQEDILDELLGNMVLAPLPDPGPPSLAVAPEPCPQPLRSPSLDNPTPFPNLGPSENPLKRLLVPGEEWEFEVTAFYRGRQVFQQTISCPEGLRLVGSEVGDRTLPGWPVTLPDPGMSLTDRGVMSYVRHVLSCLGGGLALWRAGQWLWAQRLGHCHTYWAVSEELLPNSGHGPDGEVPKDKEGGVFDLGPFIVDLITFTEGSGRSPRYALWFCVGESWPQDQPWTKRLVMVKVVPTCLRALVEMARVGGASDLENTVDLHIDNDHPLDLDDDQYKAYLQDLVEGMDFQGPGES
| Oligonucleotide | fitted relative affinity [z-score] |
| --- | --- |
| TTAGGACTGGGTTTCAGTTAGTGCTAG | 0.467 |
| TTAGGTATACTTCTCCTTTAGTGCTAG | 1 |
| GACGGTATCATTATCCTGACGTGCTAG | 2.92 |
| GACGGACTGGACTATCGGAACGTGCTA | -0.018 |
| TCCAATTCTCTTTTCACTTTGTGCTAG | 2.79 |
| CAGGAATTGAAAATTAGTGTTGTGCTA | -0.41 |
| TTTGGTATCGACTTTCGGTTAGTGCTA | 2.16 |
| GACGATATCAGTATCGACACGTGCTAG | 1.27 |
| GAACCTTCCCCTCTAGGTTCGTGCTAG | 1.81 |
| GACGATTTCAGTCTCGCGACGTGCTAG | 2.18 |
| TCATATATGTGTATATAACTGTGCTAG | 0.595 |
| TCATCATTCCAATTCTTACTGTGCTAG | 1.13 |
| TTAGATCTCAGACTGTATTAGTGCTAG | -0.0728 |
| TTAGGTCTCGATATCGGTTAGTGCTAG | 0.796 |
| TTAGATATCAGCATCGATTAGTGCTAG | -0.0105 |
| TTAGGTATCGGATATCGGTTAGTGCTA | 2.55 |
| TTAGAAGTGAGACTGGATTAGTGCTAG | -0.476 |

A few entries again (sample 2):
| Oligonucleotide | relative binding energy |
| --- | --- |
| GGGTGTT | 0.634 ln ratio |
| CATTATC | -0.705 ln ratio |
| GAATGTT | 0.124 ln ratio |
| GTCGGTT | 0.868 ln ratio |
| ATCCGTT | 0.0258 ln ratio |
| CATGAAT | 0.773 ln ratio |
| TTGAGTT | 0.912 ln ratio |
| CATAGAT | 0.405 ln ratio |
